Measured values collected from several papers.
Numbered parts are unrelated; each lists some results of a single study.
UniProt Q8IYT8, sequence (whole entry, looked up): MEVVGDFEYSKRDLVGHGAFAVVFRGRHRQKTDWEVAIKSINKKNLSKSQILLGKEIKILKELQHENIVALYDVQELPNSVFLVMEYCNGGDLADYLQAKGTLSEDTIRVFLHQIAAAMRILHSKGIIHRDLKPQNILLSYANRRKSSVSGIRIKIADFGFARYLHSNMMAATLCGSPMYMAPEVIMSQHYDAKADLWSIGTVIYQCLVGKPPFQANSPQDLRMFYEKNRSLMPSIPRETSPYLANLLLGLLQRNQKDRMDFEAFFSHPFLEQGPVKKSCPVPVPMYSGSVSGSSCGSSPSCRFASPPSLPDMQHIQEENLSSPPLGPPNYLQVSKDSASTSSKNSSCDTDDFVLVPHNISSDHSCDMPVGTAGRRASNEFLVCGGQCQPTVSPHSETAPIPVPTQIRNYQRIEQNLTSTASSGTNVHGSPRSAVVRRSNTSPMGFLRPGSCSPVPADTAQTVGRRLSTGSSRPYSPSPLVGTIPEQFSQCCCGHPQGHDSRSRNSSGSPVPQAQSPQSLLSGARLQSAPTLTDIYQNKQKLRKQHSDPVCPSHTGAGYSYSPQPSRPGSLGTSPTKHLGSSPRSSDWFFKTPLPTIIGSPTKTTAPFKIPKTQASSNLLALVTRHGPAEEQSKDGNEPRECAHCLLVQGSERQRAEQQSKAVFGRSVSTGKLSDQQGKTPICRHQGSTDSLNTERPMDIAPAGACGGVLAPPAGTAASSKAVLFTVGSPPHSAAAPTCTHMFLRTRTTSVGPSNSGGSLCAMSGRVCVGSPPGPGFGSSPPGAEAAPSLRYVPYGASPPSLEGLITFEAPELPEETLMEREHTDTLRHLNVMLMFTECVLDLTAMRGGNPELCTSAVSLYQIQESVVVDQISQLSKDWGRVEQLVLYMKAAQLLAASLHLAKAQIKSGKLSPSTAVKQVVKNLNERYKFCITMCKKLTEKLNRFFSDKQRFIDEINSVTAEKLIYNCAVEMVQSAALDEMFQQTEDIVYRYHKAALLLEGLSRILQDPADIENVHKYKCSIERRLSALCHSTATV
UniProt Q9BX84, sequence (whole entry, looked up): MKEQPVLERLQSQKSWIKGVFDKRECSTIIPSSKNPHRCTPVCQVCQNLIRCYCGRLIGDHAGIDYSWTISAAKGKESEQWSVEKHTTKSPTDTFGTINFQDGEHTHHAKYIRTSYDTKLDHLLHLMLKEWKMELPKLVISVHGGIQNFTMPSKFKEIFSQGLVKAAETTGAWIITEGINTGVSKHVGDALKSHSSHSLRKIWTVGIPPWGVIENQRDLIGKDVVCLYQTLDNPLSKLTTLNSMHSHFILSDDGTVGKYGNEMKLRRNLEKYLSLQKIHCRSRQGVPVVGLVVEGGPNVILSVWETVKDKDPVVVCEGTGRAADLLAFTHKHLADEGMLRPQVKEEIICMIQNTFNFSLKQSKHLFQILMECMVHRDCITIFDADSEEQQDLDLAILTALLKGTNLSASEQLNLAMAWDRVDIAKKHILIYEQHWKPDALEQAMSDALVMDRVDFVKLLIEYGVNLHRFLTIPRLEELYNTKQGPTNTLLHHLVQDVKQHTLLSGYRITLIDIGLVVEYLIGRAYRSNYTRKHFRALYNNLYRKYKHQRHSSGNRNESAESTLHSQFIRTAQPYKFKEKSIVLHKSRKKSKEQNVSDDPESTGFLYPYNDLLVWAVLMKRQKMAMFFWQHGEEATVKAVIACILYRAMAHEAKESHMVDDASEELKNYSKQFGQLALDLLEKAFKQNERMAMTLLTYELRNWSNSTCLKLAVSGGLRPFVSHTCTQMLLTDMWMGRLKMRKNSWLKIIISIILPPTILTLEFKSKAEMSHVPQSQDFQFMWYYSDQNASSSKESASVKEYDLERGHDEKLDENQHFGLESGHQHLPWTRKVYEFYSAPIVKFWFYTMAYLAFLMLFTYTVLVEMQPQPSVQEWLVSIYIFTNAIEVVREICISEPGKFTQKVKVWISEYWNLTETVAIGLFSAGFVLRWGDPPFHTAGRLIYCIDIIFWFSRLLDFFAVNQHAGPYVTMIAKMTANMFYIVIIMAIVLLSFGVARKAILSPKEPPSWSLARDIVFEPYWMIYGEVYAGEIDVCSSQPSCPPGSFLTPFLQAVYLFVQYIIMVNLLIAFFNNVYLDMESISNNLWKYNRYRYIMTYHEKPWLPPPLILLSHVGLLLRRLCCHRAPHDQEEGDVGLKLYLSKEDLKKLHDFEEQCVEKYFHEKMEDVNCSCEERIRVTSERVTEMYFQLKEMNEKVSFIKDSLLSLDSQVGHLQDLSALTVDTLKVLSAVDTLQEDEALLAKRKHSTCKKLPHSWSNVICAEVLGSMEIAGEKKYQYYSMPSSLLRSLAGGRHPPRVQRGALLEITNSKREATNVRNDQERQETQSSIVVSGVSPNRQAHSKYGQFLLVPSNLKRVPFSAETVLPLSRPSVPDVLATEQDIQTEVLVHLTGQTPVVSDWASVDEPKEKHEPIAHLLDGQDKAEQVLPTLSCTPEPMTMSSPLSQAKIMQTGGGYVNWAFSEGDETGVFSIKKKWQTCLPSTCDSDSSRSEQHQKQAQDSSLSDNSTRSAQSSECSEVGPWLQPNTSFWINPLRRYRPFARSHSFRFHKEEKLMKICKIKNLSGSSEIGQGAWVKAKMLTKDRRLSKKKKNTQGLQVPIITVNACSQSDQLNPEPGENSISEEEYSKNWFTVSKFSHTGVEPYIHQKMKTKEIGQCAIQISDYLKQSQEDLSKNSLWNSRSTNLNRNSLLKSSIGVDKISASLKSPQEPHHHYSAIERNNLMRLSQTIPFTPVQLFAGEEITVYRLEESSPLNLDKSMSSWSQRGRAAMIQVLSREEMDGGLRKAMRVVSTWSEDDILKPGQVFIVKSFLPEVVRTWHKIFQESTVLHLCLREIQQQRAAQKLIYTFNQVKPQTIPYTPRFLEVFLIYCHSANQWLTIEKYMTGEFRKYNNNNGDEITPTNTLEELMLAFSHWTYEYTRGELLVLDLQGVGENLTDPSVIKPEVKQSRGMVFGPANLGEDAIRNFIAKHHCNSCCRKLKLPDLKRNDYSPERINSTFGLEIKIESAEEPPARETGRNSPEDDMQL
UniProt Q99558, sequence (whole entry, looked up): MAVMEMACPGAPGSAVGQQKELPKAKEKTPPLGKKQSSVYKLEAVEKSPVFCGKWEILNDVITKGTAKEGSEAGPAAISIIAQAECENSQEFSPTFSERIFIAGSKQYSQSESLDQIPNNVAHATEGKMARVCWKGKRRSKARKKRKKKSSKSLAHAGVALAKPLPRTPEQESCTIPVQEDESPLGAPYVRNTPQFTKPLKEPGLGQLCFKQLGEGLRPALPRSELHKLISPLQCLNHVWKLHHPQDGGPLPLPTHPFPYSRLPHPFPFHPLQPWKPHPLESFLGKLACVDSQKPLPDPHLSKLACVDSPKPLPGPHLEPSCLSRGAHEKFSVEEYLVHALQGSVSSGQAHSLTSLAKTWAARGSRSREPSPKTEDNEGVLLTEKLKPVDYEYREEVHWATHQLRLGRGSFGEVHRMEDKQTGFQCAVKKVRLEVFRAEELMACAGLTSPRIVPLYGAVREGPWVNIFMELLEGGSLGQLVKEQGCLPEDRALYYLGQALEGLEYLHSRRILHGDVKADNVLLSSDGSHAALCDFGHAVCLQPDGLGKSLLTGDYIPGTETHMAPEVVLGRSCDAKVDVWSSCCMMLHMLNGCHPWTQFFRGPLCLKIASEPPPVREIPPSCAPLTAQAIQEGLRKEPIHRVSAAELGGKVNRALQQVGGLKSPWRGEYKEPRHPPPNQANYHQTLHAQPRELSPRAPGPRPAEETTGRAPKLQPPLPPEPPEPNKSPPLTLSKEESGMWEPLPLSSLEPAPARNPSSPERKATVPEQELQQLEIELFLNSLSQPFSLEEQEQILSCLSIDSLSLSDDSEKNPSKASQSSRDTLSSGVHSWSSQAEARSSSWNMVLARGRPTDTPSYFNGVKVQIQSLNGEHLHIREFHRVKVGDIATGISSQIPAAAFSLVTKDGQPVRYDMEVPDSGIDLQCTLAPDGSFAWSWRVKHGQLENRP
UniProt Q6PHR2, sequence (whole entry, looked up): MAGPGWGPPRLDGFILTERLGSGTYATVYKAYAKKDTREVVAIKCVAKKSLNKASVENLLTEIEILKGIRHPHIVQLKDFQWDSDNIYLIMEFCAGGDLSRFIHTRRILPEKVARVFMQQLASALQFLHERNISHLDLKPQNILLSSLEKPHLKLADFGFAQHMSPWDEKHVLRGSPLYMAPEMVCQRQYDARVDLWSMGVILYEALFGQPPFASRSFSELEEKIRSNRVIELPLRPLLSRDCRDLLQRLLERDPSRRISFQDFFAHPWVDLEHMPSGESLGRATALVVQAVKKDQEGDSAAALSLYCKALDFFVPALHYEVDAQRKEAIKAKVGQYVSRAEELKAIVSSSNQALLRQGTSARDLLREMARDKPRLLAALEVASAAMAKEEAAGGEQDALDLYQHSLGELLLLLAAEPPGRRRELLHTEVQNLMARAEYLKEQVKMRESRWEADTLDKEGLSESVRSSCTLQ

Set 1
Target: Eukaryotic initiation factor 4A-I (EIF4A1, Homo sapiens, UniProt P60842, residues 1-406, full length assumed)
UniProt P60842, sequence (whole entry, looked up): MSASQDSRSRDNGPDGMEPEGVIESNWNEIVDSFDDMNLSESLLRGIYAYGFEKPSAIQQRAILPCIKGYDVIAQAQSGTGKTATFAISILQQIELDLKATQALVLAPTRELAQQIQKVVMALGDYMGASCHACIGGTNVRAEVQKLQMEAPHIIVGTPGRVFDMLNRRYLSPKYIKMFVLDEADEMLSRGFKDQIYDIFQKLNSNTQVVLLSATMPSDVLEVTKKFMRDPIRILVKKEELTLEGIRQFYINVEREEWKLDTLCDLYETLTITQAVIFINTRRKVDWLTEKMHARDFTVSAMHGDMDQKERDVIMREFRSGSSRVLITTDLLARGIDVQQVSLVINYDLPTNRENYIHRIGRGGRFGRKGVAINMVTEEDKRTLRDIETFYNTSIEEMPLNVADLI
Technique: RNA Bind-n-Seq
Form: RNA
Matrix: in vitro
Concentration: 15 pmol
Notes: 4-mer, random 30-nt RNA, single round
Added: 3 µM RocA, 2 mM AMP-PNP
Reference: mean of 4-mers
Direction: higher = stronger binding
Under “4-mer enrichment Z-score”, `AGUC` is recorded as -0.654.
`CUCA` — result for “4-mer enrichment Z-score”: -1.57.
`AAAG` — result for “4-mer enrichment Z-score”: 2.06.
For `UGAC`, “4-mer enrichment Z-score” read -0.532.
`UCCG` — result for “4-mer enrichment Z-score”: -0.773.
Under “4-mer enrichment Z-score”, `CCCU` is recorded as -1.
`GCGC` — result for “4-mer enrichment Z-score”: 0.541.
Under “4-mer enrichment Z-score”, `UCAU` is recorded as -1.59.

Set 2
Compound: O=C(Nc1ccc(Oc2ccc(F)cc2)cc1)N1CCc2ncccc2[C@H]1c1ccc(F)cc1
Read-out: cell-free assay
Technique: competition with immobilised ligand
Concentration: 1 µM
Cyclin-dependent kinase-like 2 (CDKL2, Homo sapiens, UniProt Q92772) — remaining binding: 77%.
It gave 100% for remaining binding (STE20-like serine/threonine-protein kinase (SLK, Homo sapiens, UniProt Q9H2G2)).
For Serine/threonine-protein kinase MAK (MAK, Homo sapiens, UniProt P20794): remaining binding read 100%.
It gave 98% for remaining binding (Serine/threonine-protein kinase ULK2 (ULK2, Homo sapiens, UniProt Q8IYT8)).
The remaining binding was 100% (Serine/threonine-protein kinase DCLK1 (DCLK1, Homo sapiens, UniProt O15075)).
It gave 100% for remaining binding (Transient receptor potential cation channel subfamily M member 6 (TRPM6, Homo sapiens, UniProt Q9BX84)).
The remaining binding was 100% (Tyrosine-protein kinase Fgr (FGR, Homo sapiens, UniProt P09769)).
It gave 100% for remaining binding (ALK tyrosine kinase receptor (ALK, Homo sapiens, UniProt Q9UM73, L1196M)).
It gave 100% for remaining binding (Phosphatidylinositol 3-kinase C2 domain-containing subunit gamma (PIK3C2G, Homo sapiens, UniProt O75747)).

Set 3
Target: RNA binding protein fox-1 homolog 2, RRM domain, GST-SBP tag (RBFOX2, Homo sapiens, UniProt O43251-10, residues 100-194)
Technique: RNA Bind-n-Seq
Form: RNA
Matrix: in vitro
Concentration: 365 nM
Notes: natural RNA segment, single round, ends assumed
Reference: no-protein control
Direction: higher = stronger binding
All sequences stand within: GGGAGUUCUACAGUCCGACGAUC … UGGAAUUCUCGGGUGCCAA
Residues (chain): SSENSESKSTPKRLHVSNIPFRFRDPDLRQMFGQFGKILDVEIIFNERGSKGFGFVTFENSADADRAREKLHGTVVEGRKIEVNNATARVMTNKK
`CUUUAACCUCUUAGUUGUCUAAGAGUUAAAUAUUACUGAAUUUCAGACGUUCAAAUUGAUCAUCACAAAUCCUUUAAAACAAUUACCUAAAAGAAACCAAAAAUCCUGCC` — result for “RBNS enrichment (R)”: 0.778.
Under “RBNS enrichment (R)”, `UGAGGUGGGCUCCCUUCUUUGUAGAUGCCUUUCCUCUCGUAAUAACAACUCCUUGCCCCCAGGGCUCUGGCUGCCAGGGCCUACUGCUGCUUUCCUGGGAAGCCGCAAGU` is recorded as 0.903.
`CUGUGGUUUUGACUUCCUUAUCUCUUGGGAGAAGCUUCUGUUUUAAGGAAUUUCUCUUCCUUCUUCUCCUGCCUCUAGCCUCUCCUGGAAAGGCCUGGAUAUGGUUUCUA`: “RBNS enrichment (R)” 0.389.
For `UGCCCCAGGGGGGCCUCCCUCCUGAGGCUCAAGCUCCUGGCGUCUUUCUUCCUGUUGCUGGAUUCUCACCUCCAUGGGCCUGUCUCUUCUGCCUCUGCCUUCUGGACACC`, “RBNS enrichment (R)” read 0.277.
Under “RBNS enrichment (R)”, `CAGAACUGAGGGGCUGGCCCCAGGCAGCUCCCAGGGGGUAGAACGGCCCUGUGCUUAAGACACUCCUGCUGCCCCGUCUGAGGGUGGCAAUUAAAGUUGCUUCACAUCCU` is recorded as 0.289.
Under “RBNS enrichment (R)”, `UGUCUACCUCUGACUUCUGUGGUCCCUCUGUGUCUGCUCUCAUCCAUUCCUCUUACUGGGGCCUGGGGCUCUAGCCCAAGGCUCAGAGGAGCCAAUAAACCUGUAAAUGA` is recorded as 0.371.
`AGCGGUCUCCAUUUCCCAGGCUCCUCUGGGGUCUCUGCCUCUGGCCGUGUGUCAAGGAGAUGCCCACUGGGGCUCCAACCGUCUUCAGACACUGUGGAAGUGGGAGGGUA`: “RBNS enrichment (R)” 0.317.
Under “RBNS enrichment (R)”, `GUGGGACUUAGUGGUGAGACACUGGUUGAUCUCUUAGAAGCCCUGGGACACGCCCUCCCUCAUUCAUCUUGCAAGCGAAGCGAAUCCUUUUUCUUGAGAAGCCUCAGAGA` is recorded as 0.571.

Set 4
Structure (SMILES): CCOc1nc(NC(=O)Cc2cc(OC)ccc2OC)cc(N)c1C#N
Read-out: enzyme activity
Action: inhibitor
Concentration: 0.5 µM
Reference: control
The remaining activity was 95.2% (Serine/threonine-protein kinase Nek1 (NEK1, Homo sapiens, UniProt Q96PY6)).
For Angiopoietin-1 receptor (TEK, Homo sapiens, UniProt Q02763): remaining activity read 101%.
It gave 105% for remaining activity (Casein kinase I isoform gamma-3 (CSNK1G3, Homo sapiens, UniProt Q9Y6M4)).
Serine/threonine-protein kinase ULK2 (ULK2, Homo sapiens, UniProt Q8IYT8) — remaining activity: 110%.
The remaining activity was 90.3% (Dual specificity mitogen-activated protein kinase kinase 2 (MAP2K2, Homo sapiens, UniProt P36507)).
The remaining activity was 100% (Casein kinase I isoform gamma-2 (CSNK1G2, Homo sapiens, UniProt P78368)).
It gave 96.6% for remaining activity (Serine/threonine-protein kinase TBK1 (TBK1, Homo sapiens, UniProt Q9UHD2)).
The remaining activity was 104% (Serine/threonine-protein kinase A-Raf (ARAF, Homo sapiens, UniProt P10398)).
Rhodopsin kinase GRK7 (GRK7, Homo sapiens, UniProt Q8WTQ7) — remaining activity: 114%.
Mitogen-activated protein kinase kinase kinase 14 (MAP3K14, Homo sapiens, UniProt Q99558) — remaining activity: 108%.
It gave 104% for remaining activity (Serine/threonine-protein kinase ULK3 (ULK3, Homo sapiens, UniProt Q6PHR2)).
For Mitogen-activated protein kinase 3 (MAPK3, Homo sapiens, UniProt P27361): remaining activity read 96%.
It gave 94.7% for remaining activity (Ephrin type-A receptor 3 (EPHA3, Homo sapiens, UniProt P29320)).

Repeated from above (set 1):
Under “4-mer enrichment Z-score”, `CCCU` is recorded as -1.
`AAAG` — result for “4-mer enrichment Z-score”: 2.06.
`GCGC` — result for “4-mer enrichment Z-score”: 0.541.
